# Measured values from different studies.
# Lines come from different studies, so protocols differ. “And” joins repeats or separate records; there may be more than shown. ± marks the error that the study gave.
Compound,tested on,assay,test system,setting,how to read,measurement,result
Cc1nc(-c2ccc(OCC(C)C)c(C#N)c2)sc1C(=O)O,,,"KM mouse, chronic hyperuricaemia model","dose not given, day 4",,body weight,26.5 g and 29.4 g and 29.7 g and 27.1 g and 30.4 g and 28.7 g
O=C(Nc1cnccc1Cl)N1CCN(Cc2ccc3c(c2)OC(F)(F)O3)CC1,,refers to: Fatigue,human healthy young men,"25 mg, multiple dose",,adverse event incidence,0%
CN1CCC[C@H](CN2c3ccccc3Sc3ccccc32)C1.Cl,,,"Wistar rat female, heart","oral, 16 mg/kg",,Tmax,6 h
CNCc1ccc(-c2[nH]c3cc(F)cc4c3c2CCNC4=O)cc1,,refers to: dyspnea,human patients,"oral, 600 mg twice daily, grade 1",,patients with adverse event,7.7%
O=C1C[C@@H](c2ccc(O[C@@H]3O[C@H](C(=O)O)[C@@H](O)[C@H](O)[C@H]3O)cc2)Oc2cc(O)cc(O)c21,,,human plasma,median,,plasma concentration,656 nM
N#Cc1ccc2c(c1)[C@H]1CCCN(C(=O)c3ccc4[nH]cnc4c3)[C@H]1C2,,,human females,"360 mg, end of trial",,androstenedione,3.5 nmol/L
NS(=O)(=O)c1cc(C(=O)O)c(NCc2ccco2)cc1Cl,,refers to: headache,healthy men,"oral, 8 days, treatment-emergent, crossover trial",,subjects with adverse event,0%
Cc1cn([C@@H]2O[C@H](CO)[C@@H](O)[C@H]2O)c(=O)nc1N,OCI-Ly1,,,"0.1 µM, 120 h",,viability,87.9%
C[C@@H]1CCO[C@H]2Cn3cc(C(=O)NCc4ccc(F)cc4F)c(=O)c(O)c3C(=O)N12,,,"human paediatric patients, weight sample E to under sample F kg, plasma","oral, 25 mg film-coated tablet, 24 h, steady state, geometric mean, population PK post-hoc, N 1",,trough concentration (C24),413 ng/mL
CC(C)C[C@H](NC(=O)[C@@H](Cc1c[nH]c2ccccc12)NC(=O)[C@H](Cc1ccc(O)cc1)NC(=O)[C@H](CO)NC(=O)[C@H](Cc1c[nH]c2ccccc12)NC(=O)[C@H](Cc1c[nH]cn1)NC(=O)[C@@H]1CCC(=O)N1)C(=O)N[C@@H](CCCNC(=N)N)C(=O)N1CCC[C@H]1C(=O)NCC(N)=O,,,"Chinese girls, precocious puberty, plasma","intramuscular, 22.5 mg, 2160 h, month 3, mean",,plasma concentration,0.0552 ng/mL
C[C@@H](N)C1CCN(S(=O)(=O)c2cccc3cnccc23)CC1,,,"healthy volunteers, fasted, plasma","oral, 250 mg",,t1/2,1.03 h
CSc1ccccc1C(=O)NCCn1cc(C(=O)NCc2cccc(C)n2)c(=O)c2cc3c(cc21)OC(F)(F)O3,,,"Sprague-Dawley rat, male, plasma","intravenous, 20 mg/kg of parent drug",,Tmax,0.19 ± 0.05 h
CNC(=O)c1cc(Oc2ccc(NC(=O)Nc3cc(C(C)(C)C)nn3-c3ccc4ncccc4c3)c(F)c2)ccn1,,,human,"oral, dose not given, cycles 1 and 2, Medium Cmax subgroup",,patients with any AE of special interest,87%
COc1cccc2c1C(=O)c1c(O)c3c(c(O)c1C2=O)C[C@@](O)(C(=O)CO)C[C@@H]3O[C@H]1C[C@H](N)[C@H](O)[C@H](C)O1,COS-7,,,"100 µM, 24 h, 0.1% DMSO, unit not given",reference: control,apoptosis,12.1 ± 1.96
O=C(O)CCC(=O)O.[2H]C([2H])([2H])Oc1cc(C)c2[nH]ccc2c1CN1CC[C@@H](C2CC2)C[C@H]1c1ccc(C(=O)O)cc1,,multiple ascending dose,healthy Chinese subjects,100 mg twice daily,,subjects with lymphopenia,0%
O=C(O)CNC(=O)C(=O)O,OCI-Ly1,,,"0.1 µM, 120 h",,viability,181%
C=CC(=O)N1CCC(c2ccc(C(N)=O)c(-c3ccc(Oc4ccccc4)cc3)n2)CC1,,,relapsed/refractory mantle cell lymphoma patients,"oral, dose not given, part, all doses, CTCAE v4.03",,TEAE rate,50%
Cn1c(=O)[nH]c2ncn(C)c2c1=O,,,"human, both sexes, plasma",,,samples above LOQ,100%
CCc1cc(C(=O)NC)c2nccc(N3CCc4c(cc(Cn5ccnc5)cc4-c4cn(C)nc4C(F)(F)F)C3=O)c2c1,,,"Sprague Dawley rat, male, plasma","oral, 100 mg/kg once daily, 7 days, toxicokinetic satellite group",,AUC extrapolated fraction,0%
O=C(COc1ccc(Cl)cc1)NC12CC(c3nnc([C@H]4C[C@@H](OC(F)(F)F)C4)o3)(C1)C2,,,human both sexes,"oral, 45 mg once daily, 14 days",,postural dizziness participants,16.7%
C[C@@H]1CN(c2c(F)c(N)c3c(=O)c(C(=O)O)cn(C4CC4)c3c2F)C[C@H](C)N1,,starch gel membrane permeability,Gram-negative envelope surrogate,"200 µM, 45 min, pH 7.4",,amount permeated,1.1 nmol
C=CC(=O)Nc1cc(Nc2nccc(-c3cn(C)c4ccccc34)n2)c(OC)cc1N(C)CCN(C)C,,storage stability,human dried blood spots,"72 h, on ice, LLOQ level",,recovery,64.5%
O=C(O)c1ccc(O)c(O)c1,,,human plasma,"mean, both sexes",,plasma concentration,515 nM
COCCOCc1ccc(-c2cc3onc(-c4ccccc4)c3c(=O)n2C)cc1,COS-7,,,"3 µM, 24 h, 0.1% DMSO, unit not given",reference: vehicle control,apoptotic cells,0.88 ± 0.03

# For quick reference, copied from above:
Compound,tested on,assay,test system,setting,how to read,measurement,result
O=C(O)CCC(=O)O.[2H]C([2H])([2H])Oc1cc(C)c2[nH]ccc2c1CN1CC[C@@H](C2CC2)C[C@H]1c1ccc(C(=O)O)cc1,,multiple ascending dose,healthy Chinese subjects,100 mg twice daily,,subjects with lymphopenia,0%
O=C(O)CNC(=O)C(=O)O,OCI-Ly1,,,"0.1 µM, 120 h",,viability,181%
C=CC(=O)N1CCC(c2ccc(C(N)=O)c(-c3ccc(Oc4ccccc4)cc3)n2)CC1,,,relapsed/refractory mantle cell lymphoma patients,"oral, dose not given, part, all doses, CTCAE v4.03",,TEAE rate,50%
